{"data": "Results gathered from unrelated publications", "uncharacterized protein": "uncharacterized protein (Streptococcus mutans serotype c, UniProt Q8DS94)", "note": "± marks the error that the study gave.", "sequence of UniProt P20813 (whole entry, looked up)": "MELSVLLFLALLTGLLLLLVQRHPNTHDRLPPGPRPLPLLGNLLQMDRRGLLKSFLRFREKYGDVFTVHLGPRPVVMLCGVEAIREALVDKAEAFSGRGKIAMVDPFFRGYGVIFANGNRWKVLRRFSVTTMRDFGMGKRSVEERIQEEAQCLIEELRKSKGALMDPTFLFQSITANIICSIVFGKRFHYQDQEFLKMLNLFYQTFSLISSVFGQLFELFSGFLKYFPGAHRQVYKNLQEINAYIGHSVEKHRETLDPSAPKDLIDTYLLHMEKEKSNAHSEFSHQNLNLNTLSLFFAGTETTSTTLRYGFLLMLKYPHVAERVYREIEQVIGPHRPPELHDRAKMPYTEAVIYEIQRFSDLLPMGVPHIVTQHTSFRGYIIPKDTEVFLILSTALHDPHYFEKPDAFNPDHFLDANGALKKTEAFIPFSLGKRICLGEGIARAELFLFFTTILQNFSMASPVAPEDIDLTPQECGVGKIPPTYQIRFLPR", "sequence of UniProt P02769 (whole entry, looked up)": "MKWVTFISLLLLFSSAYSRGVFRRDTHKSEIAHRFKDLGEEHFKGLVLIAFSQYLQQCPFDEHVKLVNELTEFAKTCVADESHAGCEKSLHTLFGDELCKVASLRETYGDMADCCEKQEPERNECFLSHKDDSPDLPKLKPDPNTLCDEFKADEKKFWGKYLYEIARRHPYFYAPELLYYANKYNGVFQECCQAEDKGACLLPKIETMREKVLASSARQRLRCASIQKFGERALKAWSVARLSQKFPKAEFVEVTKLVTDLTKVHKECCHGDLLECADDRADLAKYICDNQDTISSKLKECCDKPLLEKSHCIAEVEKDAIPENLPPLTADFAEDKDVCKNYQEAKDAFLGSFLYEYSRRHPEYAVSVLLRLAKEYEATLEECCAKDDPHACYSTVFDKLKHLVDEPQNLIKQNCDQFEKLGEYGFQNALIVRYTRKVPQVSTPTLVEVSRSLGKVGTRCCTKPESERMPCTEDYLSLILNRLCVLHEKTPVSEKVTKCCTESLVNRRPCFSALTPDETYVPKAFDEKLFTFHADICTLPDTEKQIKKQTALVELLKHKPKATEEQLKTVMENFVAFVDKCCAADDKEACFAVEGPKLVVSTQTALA", "sequence of UniProt P49146 (whole entry, looked up)": "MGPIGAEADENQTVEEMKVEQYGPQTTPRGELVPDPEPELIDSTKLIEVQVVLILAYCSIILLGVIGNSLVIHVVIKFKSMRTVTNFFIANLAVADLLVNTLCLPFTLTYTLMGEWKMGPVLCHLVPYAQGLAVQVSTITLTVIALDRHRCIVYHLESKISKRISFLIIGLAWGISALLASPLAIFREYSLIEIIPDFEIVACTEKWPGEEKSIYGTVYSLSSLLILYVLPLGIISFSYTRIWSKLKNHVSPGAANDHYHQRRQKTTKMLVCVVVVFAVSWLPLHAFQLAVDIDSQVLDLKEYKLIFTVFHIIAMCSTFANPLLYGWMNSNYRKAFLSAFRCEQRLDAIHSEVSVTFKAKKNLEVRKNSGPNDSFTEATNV", "sequence of UniProt P22607 (whole entry, looked up)": "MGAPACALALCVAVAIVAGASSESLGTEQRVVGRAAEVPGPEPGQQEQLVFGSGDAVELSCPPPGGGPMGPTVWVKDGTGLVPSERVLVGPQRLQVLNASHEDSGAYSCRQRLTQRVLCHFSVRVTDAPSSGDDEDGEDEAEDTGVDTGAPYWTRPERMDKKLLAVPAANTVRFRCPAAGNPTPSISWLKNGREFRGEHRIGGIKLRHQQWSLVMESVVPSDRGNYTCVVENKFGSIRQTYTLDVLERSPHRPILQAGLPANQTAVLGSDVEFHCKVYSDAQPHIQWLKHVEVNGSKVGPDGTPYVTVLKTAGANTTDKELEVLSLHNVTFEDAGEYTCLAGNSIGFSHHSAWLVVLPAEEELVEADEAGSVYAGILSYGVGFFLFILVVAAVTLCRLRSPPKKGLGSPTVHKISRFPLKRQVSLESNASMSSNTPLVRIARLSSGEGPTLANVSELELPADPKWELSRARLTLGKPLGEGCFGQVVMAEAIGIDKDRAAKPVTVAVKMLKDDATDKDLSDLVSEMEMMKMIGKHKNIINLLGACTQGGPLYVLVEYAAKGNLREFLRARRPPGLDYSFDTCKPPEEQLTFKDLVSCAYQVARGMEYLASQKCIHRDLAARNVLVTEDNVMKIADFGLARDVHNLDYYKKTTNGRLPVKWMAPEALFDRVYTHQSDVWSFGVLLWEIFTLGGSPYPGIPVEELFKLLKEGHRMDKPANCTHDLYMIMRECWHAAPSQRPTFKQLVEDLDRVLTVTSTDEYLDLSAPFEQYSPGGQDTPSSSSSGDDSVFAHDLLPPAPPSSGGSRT", "sequence of UniProt Q92835 (whole entry, looked up)": "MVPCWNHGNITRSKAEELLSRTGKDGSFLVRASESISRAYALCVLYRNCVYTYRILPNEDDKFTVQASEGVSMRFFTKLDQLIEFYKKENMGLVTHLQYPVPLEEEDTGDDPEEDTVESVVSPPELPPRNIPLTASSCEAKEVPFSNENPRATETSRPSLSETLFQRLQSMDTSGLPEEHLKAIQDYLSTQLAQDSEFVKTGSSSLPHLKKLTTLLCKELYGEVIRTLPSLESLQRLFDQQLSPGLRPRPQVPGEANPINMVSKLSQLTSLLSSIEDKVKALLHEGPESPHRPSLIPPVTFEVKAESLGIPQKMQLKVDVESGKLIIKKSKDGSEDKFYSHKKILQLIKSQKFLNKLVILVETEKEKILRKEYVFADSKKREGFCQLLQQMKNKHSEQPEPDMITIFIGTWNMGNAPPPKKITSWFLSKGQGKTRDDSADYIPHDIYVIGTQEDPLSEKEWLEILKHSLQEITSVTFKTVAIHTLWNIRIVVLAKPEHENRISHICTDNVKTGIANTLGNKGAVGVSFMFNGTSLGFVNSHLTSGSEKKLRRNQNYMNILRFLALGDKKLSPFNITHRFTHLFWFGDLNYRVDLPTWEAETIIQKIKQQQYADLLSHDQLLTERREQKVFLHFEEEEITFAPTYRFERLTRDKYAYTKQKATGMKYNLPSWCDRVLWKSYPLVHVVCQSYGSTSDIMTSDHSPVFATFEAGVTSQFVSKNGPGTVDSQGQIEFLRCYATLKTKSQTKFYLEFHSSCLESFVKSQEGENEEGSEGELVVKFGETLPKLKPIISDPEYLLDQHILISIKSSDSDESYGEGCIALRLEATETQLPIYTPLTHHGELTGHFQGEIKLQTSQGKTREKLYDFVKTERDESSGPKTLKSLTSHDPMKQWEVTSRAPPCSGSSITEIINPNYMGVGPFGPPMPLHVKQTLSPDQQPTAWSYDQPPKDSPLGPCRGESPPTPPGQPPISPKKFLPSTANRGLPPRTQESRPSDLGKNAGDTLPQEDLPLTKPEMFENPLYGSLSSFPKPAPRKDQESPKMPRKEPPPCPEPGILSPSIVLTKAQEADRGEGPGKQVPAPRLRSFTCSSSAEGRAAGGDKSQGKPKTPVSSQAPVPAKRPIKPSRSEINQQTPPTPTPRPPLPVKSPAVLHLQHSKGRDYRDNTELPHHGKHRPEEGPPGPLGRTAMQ"}
{"Structure (SMILES)": "CC(=O)N[C@@H](CCCNC(=N)N)C(=O)N[C@@H](Cc1ccc(O)cc1)C(=O)N[C@@H](CCCN/C(N)=N/C(=O)NCCCCN)C(=O)N[C@@H](CC(C)C)C(=O)N[C@@H](CCCNC(=N)N)C(=O)N[C@@H](Cc1ccc(O)cc1)C(N)=O", "target or system": "NPY2R (Homo sapiens, UniProt P49146)", "test": "ligand displacement, radioligand", "endpoint": "Ki", "result": "> 5000 nM"}
{"Structure (SMILES)": "CC(=O)N[C@@H](Cc1c[nH]cn1)C(=O)N[C@@H](CCCNC(=N)N)C(=O)N[C@@H](CCCNC(=N)N)C(=O)N[C@@H](CCCNC(=N)N)C(=O)N[C@@H](CCCNC(=N)N)C(=O)N[C@@H](CCCNC(=N)N)C(=O)N[C@@H](CCCNC(=N)N)C(=O)N[C@@H](CCCNC(=N)N)C(=O)N[C@@H](CCCNC(=N)N)C(=O)N[C@@H](Cc1c[nH]cn1)C(N)=O", "target or system": "Albumin (ALB, Bos taurus, UniProt P02769)", "test": "fluorescence quenching", "endpoint": "binding constant", "result": "520000 M⁻¹"}
{"Structure (SMILES)": "CC(C)C[C@H](NC(=O)[C@H](CO)NC(=O)CNC(=O)[C@@H](N)CO)C(=O)N[C@@H](CO)C(=O)N[C@H](C(=O)N[C@@H](Cc1ccccc1)C(=O)N[C@@H](Cc1ccccc1)C(=O)N[C@@H](CCCNC(=N)N)C(=O)N[C@@H](CC(C)C)C(=O)N[C@@H](Cc1ccccc1)C(=O)N[C@@H](CC(N)=O)C(=O)N[C@@H](CCCNC(=N)N)C(=O)N[C@H](CO)C(=O)N[C@@H](Cc1ccccc1)C(=O)N[C@H](C(=O)N[C@@H](CCC(N)=O)C(=O)N[C@@H](C)C(=O)O)[C@@H](C)O)[C@@H](C)O", "target or system": "uncharacterized protein", "test system": "Streptococcus mutans", "endpoint": "EC50", "result": "> 1000 nM"}
{"Structure (SMILES)": "CN[C@](C)(C[18F])C(=O)O", "target or system": "A549 tumour model", "test system": "host not given, pancreas", "setting": "2 h, tumour-bearing", "endpoint": "tracer uptake", "result": "11.2 %ID/g"}
{"Structure (SMILES)": "CSc1ccc2c(c1)c(CCN)c(C)n2Cc1ccc(Cl)cc1", "target or system": "INPP5D (Homo sapiens, UniProt Q92835)", "test": "target engagement", "test system": "HMC3 expressing HiBiT-INPP5D", "setting": "60 min, 37 °C", "endpoint": "AC50", "result": "46000 nM"}
{"Structure (SMILES)": "CSCC[C@H](NC(C)=O)C(=O)N[C@@H](CO)C(=O)N[C@@H](CO)C(=O)N1CCC[C@H]1C(=O)N1CCC[C@H]1C(=O)N[C@H]1CSCc2cc3cc(c2)CSC[C@@H](C(=O)N[C@@H](CC(C)C)C(=O)N[C@@H](CCCNC(=N)N)C(=O)N[C@@H](CCCNC(=N)N)C(=O)N[C@@H](Cc2ccc(O)cc2)C(=O)NCC(=O)N[C@@H](CO)C(=O)NCC(=O)N[C@@H](CO)C(=O)NCC(=O)N[C@@H](CO)C(=O)N[C@@H](CC(=O)O)C(=O)N[C@@H](Cc2ccc(O)cc2)C(=O)N[C@@H](CCCCN)C(=O)N[C@@H](CC(=O)O)C(=O)N[C@@H](CC(=O)O)C(=O)N[C@@H](CC(=O)O)C(=O)N[C@@H](CC(=O)O)C(=O)N[C@@H](CCCCN)C(N)=O)NC(=O)[C@H](CSC3)NC(=O)CNC(=O)[C@H](CC(C)C)NC(=O)[C@H]([C@@H](C)O)NC1=O", "target or system": "FGFR3 (Homo sapiens, UniProt P22607)", "test": "binding, BLI", "endpoint": "Kd", "result": "13.3 nM"}
{"Structure (SMILES)": "CC(C)C[C@H](NC(=O)[C@H](C)NC(=O)[C@H](CCC(N)=O)NC(=O)[C@@H](NC(=O)[C@H](Cc1ccccc1)NC(=O)[C@H](CO)NC(=O)[C@H](CCCNC(=N)N)NC(=O)[C@H](CC(N)=O)NC(=O)[C@H](Cc1ccccc1)NC(=O)[C@H](CC(C)C)NC(=O)[C@H](CCCNC(=N)N)NC(=O)[C@H](Cc1ccccc1)NC(=O)[C@H](Cc1ccccc1)NC(=O)[C@@H](NC(=O)[C@H](CO)NC(=O)[C@H](CC(C)C)NC(=O)[C@H](CO)NC(=O)CNC(=O)[C@@H](N)CO)[C@@H](C)O)[C@@H](C)O)C(=O)NCC(=O)N[C@H](CCCCN)C(=O)O", "target or system": "uncharacterized protein", "test system": "Streptococcus mutans", "endpoint": "EC50", "result": "330 nM"}
{"Structure (SMILES)": "CCCCCCCC[C@H]1NC(=O)[C@H](CCN)NC(=O)[C@@H](NC(=O)[C@H](CCN)NC(=O)[C@@H](NC(=O)[C@H](CCN)NC(=O)c2ccc(-c3ccccc3)cc2)[C@@H](C)O)CCNC(=O)[C@H]([C@@H](C)O)NC(=O)[C@H](CCN)NC(=O)[C@H](CCN)NC(=O)[C@H](CC(C)C)NC1=O", "target or system": "anti-polymyxin B mouse IgM mAb", "test": "SPR", "setting": "25 °C", "endpoint": "Kd", "result": "940 nM"}
{"Structure (SMILES)": "C[C@H](NC(=O)[C@H](CCC(N)=O)NC(=O)[C@H](C)NC(=O)[C@H](CCCCN)NC(=O)[C@H](CCC(N)=O)NC(=O)[C@H](C)NC(=O)[C@H](CCCCN)NC(=O)[C@H](CCC(N)=O)NC(=O)[C@H](C)NC(=O)[C@H](CCC(N)=O)NC(=O)[C@H](CCCCN)NC(=O)[C@H](C)NC(=O)[C@H](CCC(N)=O)NC(=O)[C@H](CCCCN)NC(=O)[C@H](C)NC(=O)[C@H](CCC(N)=O)NC(=O)[C@H](C)NC(=O)[C@H](CCCCN)NC(=O)[C@H](CCC(N)=O)NC(=O)[C@H](C)NC(=O)[C@H](CCCCN)NC(=O)[C@H](CO)NC(=O)[C@H](Cc1ccc(O)cc1)NC(=O)CNC(=O)CNC(=O)CN)C(=O)N[C@@H](CCCCN)C(=O)N[C@@H](CCC(N)=O)C(=O)N[C@@H](C)C(=O)N[C@@H](CCCCN)C(=O)N[C@@H](CCC(N)=O)C(=O)O", "test": "binding, SPR two-state model", "test system": "rVλ6Wil fibrils", "setting": "300 nM", "endpoint": "kd1", "result": "0.203 s⁻¹"}
{"Structure (SMILES)": "CN1C(=O)[C@H](CCC(=O)O)NC(=O)[C@H](Cc2ccc(O)cc2)NC(=O)[C@H](CCCNC(=N)N)NC(=O)[C@@H](Cc2ccc(O)cc2)NC(=O)CSC[C@@H](C(N)=O)NC(=O)[C@H](CCCCN)NC(=O)[C@@H]2CCCN2C(=O)[C@H](CS)NC(=O)[C@H](CCC(=O)O)NC(=O)[C@H](Cc2ccc(O)cc2)N(C)C(=O)[C@H](CCCCN)NC(=O)[C@H](Cc2ccc(O)cc2)NC(=O)[C@@H]1Cc1ccc(O)cc1", "target or system": "2,3-bisphosphoglycerate-independent phosphoglycerate mutase (Helicobacter pylori, UniProt B5Z7X6)", "test": "biochemical", "endpoint": "AC50", "result": "33100 nM"}
{"Structure (SMILES)": "CCCCCc1cc(O)c2c(c1)OC(C)(C)C1CCC(C)=CC21 (single isomer, unassigned; (-))", "target or system": "Cytochrome P450 2B6 (CYP2B6, Homo sapiens, UniProt P20813)", "test": "enzyme activity, inhibitor", "test system": "human, liver microsomes", "setting": "pH 7.4", "endpoint": "Ki", "result": "7500 nM"}
{"Structure (SMILES)": "N=C(N)NCCC[C@@H]1NC(=O)[C@H](CCCCNC(=O)CC[C@H](NC(=O)CCOCCOCCOCCOCCNC(=O)CN2CCN(CC(=O)O)CCN(CC(=O)O)CCN(CC(=O)O)CC2)C(=O)NCCCC[C@@H]2NC(=O)[C@@H](Cc3ccccc3)NC(=O)[C@H](CC(=O)O)NC(=O)CNC(=O)[C@H](CCCNC(=N)N)NC2=O)NC(=O)[C@@H](Cc2ccccc2)NC(=O)[C@H](CC(=O)O)NC(=O)CNC1=O [indium-111 labelled]", "test system": "athymic nude mice, female, U-87 MG glioma xenograft, tumour and muscle", "setting": "intravenous, 0.5 h", "how to read": "relative to: tumour over muscle", "endpoint": "tumour to tissue ratio", "result": "5.22 ± 0.95"}
